Measurements gathered from unrelated publications.
Protocols differ between the studies behind these lines. Numbers after ± are the reported error.

With `N=C(N)NCCC[C@@H]1NC(=O)[C@H](CCCCNC(=O)CCOCCOCCOCCOCCNC(=O)CC[C@H](NC(=O)CCOCCOCCOCCOCCNC(=O)c2ccc(NN)nc2)C(=O)NCCOCCOCCOCCOCCC(=O)NCCCC[C@@H]2NC(=O)[C@@H](Cc3ccccc3)NC(=O)[C@H](CC(=O)O)NC(=O)CNC(=O)[C@H](CCCNC(=N)N)NC2=O)NC(=O)[C@@H](Cc2ccccc2)NC(=O)[C@H](CC(=O)O)NC(=O)CNC1=O` [technetium-99m labelled] the tumour uptake was 9.15 ± 2.13 %ID/g (athymic nude mouse, female, U-87 MG xenograft, tumour; intravenous, 2.5 µCi, 60 min).
`CC(C)C[C@H](NC(=O)C[C@H](O)[C@H](CC(C)C)NC(=O)[C@H](Cc1c[nH]cn1)NC(=O)CNC(=O)[C@@H](NC(=O)[C@H](C)NC(=O)[C@H](Cc1c[nH]c2ccccc12)NC(=O)[C@H](CCC(N)=O)NC(=O)[C@@H](Cc1ccccc1)NC(=O)c1ccc(NC(=O)CNC(=O)CCC(C(=O)O)N2CCN(CC(=O)O)CCN(CC(=O)O)CC2)cc1)C(C)C)C(N)=O` (stereo partly shown) [copper-64 labelled] has a tumour uptake of 3 ± 0.76 %ID/g (PET imaging; mouse, PC-3 xenograft; intravenous, 1.5 h, 64Cu-labelled).
The tumour uptake of `N=C(N)NCCC[C@@H]1NC(=O)[C@H](CCCCNC(=O)c2ccc(CNC34CNCCNCC(NCc5ccc(C(=O)NCCCC[C@@H]6NC(=O)[C@@H](Cc7ccc(O)cc7)NC(=O)[C@H](CC(=O)O)NC(=O)CNC(=O)[C@H](CCCNC(=N)N)NC6=O)cc5)(CNCCNC3)CNCCNC4)cc2)NC(=O)[C@@H](Cc2ccc(O)cc2)NC(=O)[C@H](CC(=O)O)NC(=O)CNC1=O` [copper-64 labelled] is reported as 0.13 ± 0.05 %ID/g (microPET; female athymic nude mouse, U-87 MG xenograft, U-87 MG tumour; intravenous, 20 h, with: c(RGDyK) 10 mg/kg blocking).
`C[C@@H]1NC(=O)[C@H](CCC(=O)O)NC(=O)CNC(=O)[C@H](CC(=O)O)NC(=O)CNC(=O)[C@H](CCCCNC(=O)CCCCCNC(=O)[C@H](CS)NC(=O)CCCCCNC(=O)CN2CCN(CC(=O)O)CCN(CC(=O)O)CCN(CC(=O)O)CC2)NC(=O)[C@@H](Cc2ccc(O)cc2)NC1=O` [gallium-68 labelled] — result for “tumour to muscle ratio”: 2.82 ± 0.76 (mouse, subcutaneous A549; 10 min).
With `N=C(N)NCCC[C@@H]1NC(=O)[C@H](CCCCNC(=O)CCOCCOCCOCCOCCNC(=O)CC[C@H](NC(=O)CCOCCOCCOCCOCCNC(=O)CC[C@H](NC(=O)CN2CCN(CC(=O)O)CCN(CC(=O)O)CCN(CC(=O)O)CC2)C(=O)NCCOCCOCCOCCOCCC(=O)N[C@@H](CCC(=O)NCCOCCOCCOCCOCCC(=O)NCCCC[C@@H]2NC(=O)[C@@H](Cc3ccccc3)NC(=O)[C@H](CC(=O)O)NC(=O)CNC(=O)[C@H](CCCNC(=N)N)NC2=O)C(=O)NCCOCCOCCOCCOCCC(=O)NCCCC[C@@H]2NC(=O)[C@@H](Cc3ccccc3)NC(=O)[C@H](CC(=O)O)NC(=O)CNC(=O)[C@H](CCCNC(=N)N)NC2=O)C(=O)NCCOCCOCCOCCOCCC(=O)NCCCC[C@@H]2NC(=O)[C@@H](Cc3ccccc3)NC(=O)[C@H](CC(=O)O)NC(=O)CNC(=O)[C@H](CCCNC(=N)N)NC2=O)NC(=O)[C@@H](Cc2ccccc2)NC(=O)[C@H](CC(=O)O)NC(=O)CNC1=O` [indium-111 labelled] the tumour uptake was 10.5 %ID/g (female athymic nude mouse, U-87 MG tumour; intravenous, 3 µCi, 0.5 h, U-87 MG glioma xenograft).
`N=C(N)NCCC[C@@H]1NC(=O)[C@H](CCCCNC(=O)CNC(=O)CNC(=O)CNC(=O)c2ccc(NN=Cc3ccccc3S(=O)(=O)O)nc2)NC(=O)[C@@H](Cc2ccccc2)NC(=O)[C@H](CC(=O)O)NC(=O)CNC1=O` [technetium-99m labelled] — result for “tumour to tissue ratio”: 1.95 ± 0.62 (athymic nu/nu mouse, female, U-87 MG glioma xenograft; intravenous, 30 min; relative to: tumour over liver).
`N=C(N)NCCC[C@@H]1NC(=O)[C@H](CCCCNC(=O)CNC(=O)CNC(=O)CNC(=O)CC[C@H](NC(=O)CCOCCOCCOCCOCCNC(=O)CC[C@H](NC(=O)CN2CCN(CC(=O)O)CCN(CC(=O)O)CCN(CC(=O)O)CC2)C(=O)NCCOCCOCCOCCOCCC(=O)N[C@@H](CCC(=O)NCC(=O)NCC(=O)NCC(=O)NCCCC[C@@H]2NC(=O)[C@@H](Cc3ccccc3)NC(=O)[C@H](CC(=O)O)NC(=O)CNC(=O)[C@H](CCCNC(=N)N)NC2=O)C(=O)NCC(=O)NCC(=O)NCC(=O)NCCCC[C@@H]2NC(=O)[C@@H](Cc3ccccc3)NC(=O)[C@H](CC(=O)O)NC(=O)CNC(=O)[C@H](CCCNC(=N)N)NC2=O)C(=O)NCC(=O)NCC(=O)NCC(=O)NCCCC[C@@H]2NC(=O)[C@@H](Cc3ccccc3)NC(=O)[C@H](CC(=O)O)NC(=O)CNC(=O)[C@H](CCCNC(=N)N)NC2=O)NC(=O)[C@@H](Cc2ccccc2)NC(=O)[C@H](CC(=O)O)NC(=O)CNC1=O` [indium-111 labelled]: “tumour to bone ratio” 7.87 ± 2.44 (female athymic nude mouse; intravenous, 4 h, U-87 MG glioma xenograft; relative to: tumour over bone).
For `N=C(N)NCCC[C@@H]1NC(=O)[C@H](CCCCNC(=O)CNC(=O)CNC(=O)CNC(=O)CC[C@H](NC(=O)c2ccc(NN=Cc3ccccc3S(=O)(=O)O)nc2)C(=O)NCC(=O)NCC(=O)NCC(=O)NCCCC[C@@H]2NC(=O)[C@@H](Cc3ccccc3)NC(=O)[C@H](CC(=O)O)NC(=O)CNC(=O)[C@H](CCCNC(=N)N)NC2=O)NC(=O)[C@@H](Cc2ccccc2)NC(=O)[C@H](CC(=O)O)NC(=O)CNC1=O` [technetium-99m labelled], “tumour to tissue ratio” read 1.56 ± 0.37 (athymic nu/nu mouse, female, MDA-MB-435 xenograft; intravenous, 30 min; relative to: tumour over liver).
The tumour uptake of `N=C(N)NCCC[C@@H]1NC(=O)[C@H](CCCCNC(=O)CC[C@H](NC(=O)CCOCCOCCOCCOCCNC(=O)CN2CCN(CC(=O)O)CCN(CC(=O)O)CCN(CC(=O)O)CC2)C(=O)NCCCC[C@@H]2NC(=O)[C@@H](Cc3ccccc3)NC(=O)[C@H](CC(=O)O)NC(=O)CNC(=O)[C@H](CCCNC(=N)N)NC2=O)NC(=O)[C@@H](Cc2ccccc2)NC(=O)[C@H](CC(=O)O)NC(=O)CNC1=O` [indium-111 labelled] is reported as 4.8 %ID/g (female athymic nude mouse, U-87 MG tumour; intravenous, 3 µCi, 4 h, U-87 MG glioma xenograft).
`CC(C)C[C@H](NC(=O)[C@@H]1CCCN1C(=O)[C@H](CCCCN)NC(=O)[C@@H](N)CO)C(=O)N1CCC[C@H]1C(=O)N[C@@H](CCC(=O)O)C(=O)N[C@H](C(=O)N[C@H](C(=O)N[C@@H](CC(=O)O)C(=O)N[C@@H](CCC(=O)O)C(=O)N[C@@H](Cc1ccc(O)cc1)C(=O)N[C@@H](Cc1cn(CCOCCOCCOCCNC(=O)CCc2ccc(O)c(CN(CCN(CC(=O)O)Cc3cc(CCC(=O)NCCCC[C@H](NC(=O)N[C@@H](CCC(=O)O)C(=O)O)C(=O)O)ccc3O)CC(=O)O)c2)nn1)C(=O)O)[C@@H](C)O)C(C)C` [gallium-68 labelled] has a tumour SUVmax of 1.6 g/mL (PET; NMRI nu/nu mouse, LNCaP xenograft; intravenous, 15 MBq, 0.52 nmol, 60 to 120 min).

Some of these lines once more:
For `N=C(N)NCCC[C@@H]1NC(=O)[C@H](CCCCNC(=O)CNC(=O)CNC(=O)CNC(=O)CC[C@H](NC(=O)c2ccc(NN=Cc3ccccc3S(=O)(=O)O)nc2)C(=O)NCC(=O)NCC(=O)NCC(=O)NCCCC[C@@H]2NC(=O)[C@@H](Cc3ccccc3)NC(=O)[C@H](CC(=O)O)NC(=O)CNC(=O)[C@H](CCCNC(=N)N)NC2=O)NC(=O)[C@@H](Cc2ccccc2)NC(=O)[C@H](CC(=O)O)NC(=O)CNC1=O` [technetium-99m labelled], “tumour to tissue ratio” read 1.56 ± 0.37 (athymic nu/nu mouse, female, MDA-MB-435 xenograft; intravenous, 30 min; relative to: tumour over liver).
